Measured values of several laboratories.
Numbered parts are unrelated; each lists some results of a single study. Substitutions count along the parent as printed.

Set 1
Target: Histone acetyltransferase KAT6A, both winged helices, GST fusion (KAT6A, Homo sapiens, UniProt Q92794, residues 1-181)
Technique: protein binding microarray
Molecule type: double-stranded DNA, one strand shown
Medium: in vitro
Concentration: not given
Notes: 8-mer, flanks averaged, mean of 2 arrays, mostly near background
Relative to: not given
Direction: higher = stronger binding
Construct (chain): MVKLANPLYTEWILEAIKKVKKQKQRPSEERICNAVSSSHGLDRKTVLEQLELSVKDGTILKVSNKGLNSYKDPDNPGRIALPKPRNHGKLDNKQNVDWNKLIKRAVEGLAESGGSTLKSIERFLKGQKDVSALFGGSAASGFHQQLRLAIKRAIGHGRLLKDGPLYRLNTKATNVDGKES
With `AGTGGAGC` the E-score was -0.0793.
For `CCTTTTAA`, the E-score was -0.165.
`GCGAAACA` has an E-score of 0.126.
With `AAGCGTCC` the E-score was 0.107.
`GGCTCTAA` has an E-score of -0.104.
`CTGGCCGC` has an E-score of 0.119.
`ACCTAGGT` has an E-score of -0.136.
With `ATGGCATC` the E-score was -0.161.
For `ATGGTCGA`, the E-score was -0.0645.
`ACAGGCTA` has an E-score of -0.248.
The E-score of `AATCCCAC` is reported as -0.245.
`CAAACGTG` has an E-score of -0.116.
For `ACTTGTGG`, the E-score was -0.141.
With `GCTATTCA` the E-score was -0.0196.
For `ACAGGGGC`, the E-score was -0.101.
The E-score of `ATCGGGCG` is reported as 0.248.
`ATTAAACG` gave an E-score of 0.0175.
With `CTCAGATC` the E-score was -0.195.

Set 2
Target: Interferon regulatory factor 5, full length, phosphomimetic (IRF5, Homo sapiens, UniProt Q13568-2, residues 1-514, S451D/S453D/S456D/S462D)
Technique: protein-binding microarray
Molecule type: double-stranded DNA, one strand shown
Medium: in vitro
Concentration: 940 nM top
Notes: 60-bp whole probe
Added: salmon DNA 0.4 mg/ml
Relative to: random background probes
Direction: higher = stronger binding
Shared flanks, not repeated: GCCTAGCAC … GTCTTGATTCGCTTGACGCTGCTG
For `TCCAATTGTCCTTTCACTTTGTGCTAG`, “fitted relative affinity” read 1.24 z-score.
`TGATGTCTGGGTCTTGGTTCGTGCTAG`: “fitted relative affinity” -0.189 z-score.
For `TTAGGTTACCTTTCCCTTTAGTGCTAG`, “fitted relative affinity” read 0.533 z-score.
For `GAAGGACTGGGTTTCGGGACGTGCTAG`, “fitted relative affinity” read 1.88 z-score.
Under “fitted relative affinity”, `GACGGACTGGACTCTGGGGACGTGCTA` is recorded as -0.294 z-score.
`TTAGATTTCCGTATCGATTAGTGCTAG` — result for “fitted relative affinity”: 3.06 z-score.
For `GACGGACTGCCTATCCTGACGTGCTAG`, “fitted relative affinity” read -0.438 z-score.
`GACGGTCTCGGTCTCGGGCCGTGCTAG`: “fitted relative affinity” 3.57 z-score.
For `GACGGTATTGACACTGGGGACGTGCTA`, “fitted relative affinity” read 0.134 z-score.
`GGCGGTCTCCTACTGCTGACGTGCTAG` — result for “fitted relative affinity”: -0.448 z-score.
`TTAAGTCTCCTTCTCCTTTAGTGCTAG` — result for “fitted relative affinity”: 0.965 z-score.
For `GACGGACTGGCTATCGGGACGTGCTAG`, “fitted relative affinity” read -0.679 z-score.
`TTCTTTATGTACTCTCTCCATGTGCTA`: “fitted relative affinity” 1.33 z-score.
`GTCTCTATCAAAAATACAAAAGTGCTA` — result for “fitted relative affinity”: 2.13 z-score.
Under “fitted relative affinity”, `TTAGATTTCGGGACTAGATTAGTGCTA` is recorded as 0.512 z-score.
`TTAGGAGTGGGGTATCGGTTAGTGCTA`: “fitted relative affinity” 2.98 z-score.
`GACGGACTGGACTTTCGGGAAGTGCTA` — result for “fitted relative affinity”: 0.0368 z-score.
`TTAGGTGCCGGTTTCGGTTAGTGCTAG` — result for “fitted relative affinity”: 7.11 z-score.
`TTTGGTATCGACTATCGGTTAGTGCTA` — result for “fitted relative affinity”: 9.27 z-score.

Set 3
Target: Prothrombin, mature alpha-thrombin (F2, Homo sapiens, UniProt P00734)
Technique: aptamer microarray, sandwich
Molecule type: DNA with 2'F-ANA
Medium: in vitro
Concentration: 200 nM
Notes: whole 15-mer aptamer, many near background
Added: Cy3 exosite-II aptamer, 400 nM
Direction: higher = stronger binding
Sequence: GGTTGGTGTGGTTGG
Under “mean fluorescence intensity”, `2'F-ANA at 1 3 5 6 7 8 10 11 12 14` is recorded as 56.4 a.u.
Under “mean fluorescence intensity”, `2'F-ANA at 1 2 3 4 5 6 10 12` is recorded as 86.1 a.u.
`2'F-ANA at 1 2 6 7 9 11 15` — result for “mean fluorescence intensity”: 98.4 a.u.
For `2'F-ANA at 1 3 5 6 9 10 11 15`, “mean fluorescence intensity” read 64.3 a.u.
`2'F-ANA at 2 3 4 6 8 9 11 13 15`: “mean fluorescence intensity” 314 a.u.
Under “mean fluorescence intensity”, `2'F-ANA at 2 3 4 7 8 9 10 11` is recorded as 295 a.u.
Under “mean fluorescence intensity”, `2'F-ANA at 1 4 9 11 13 15` is recorded as 74.3 a.u.
For `2'F-ANA at 1 4 6 7 10 13 14 15`, “mean fluorescence intensity” read 55.6 a.u.
For `2'F-ANA at 3 5 7 9 10 14`, “mean fluorescence intensity” read 62.5 a.u.
For `2'F-ANA at 1 4 7 8 9 13 15`, “mean fluorescence intensity” read 118 a.u.
For `2'F-ANA at 2 4 8 13 14`, “mean fluorescence intensity” read 104 a.u.
`2'F-ANA at 1 3 8 10 11 12 13 14 15` — result for “mean fluorescence intensity”: 91.3 a.u.
`2'F-ANA at 1 4 6 8 10 13 15` — result for “mean fluorescence intensity”: 47.4 a.u.
`2'F-ANA at 3 4 6 8 11 12 13` — result for “mean fluorescence intensity”: 607 a.u.
For `2'F-ANA at 1 2 4 7 11 12 14 15`, “mean fluorescence intensity” read 58.5 a.u.
`2'F-ANA at 1 2 3 5 6 7 12 13 14 15`: “mean fluorescence intensity” 320 a.u.
`2'F-ANA at 1 4 5 6 7 8 9 11 15` — result for “mean fluorescence intensity”: 84.1 a.u.
`2'F-ANA at 3 4 9 13 15`: “mean fluorescence intensity” 476 a.u.
For `2'F-ANA at 1 3 7 9 11 13`, “mean fluorescence intensity” read 238 a.u.
For `2'F-ANA at 2 5 7 8 9 10 11 13 14`, “mean fluorescence intensity” read 51.9 a.u.
Under “mean fluorescence intensity”, `2'F-ANA at 3 4 8 11 13 14` is recorded as 323 a.u.
For `2'F-ANA at 2 3 4 5 7 10 11 15`, “mean fluorescence intensity” read 57.3 a.u.
`2'F-ANA at 1 3 5 6 7 8 14` — result for “mean fluorescence intensity”: 57.1 a.u.
`2'F-ANA at 3 5 7 8 9 12 13 14 15`: “mean fluorescence intensity” 65 a.u.
`2'F-ANA at 3 6 9 10 12 13 14 15` — result for “mean fluorescence intensity”: 351 a.u.

Set 4
Target: CREBL2, bZIP domain (human)
Technique: DHFR protein complementation
Medium: yeast
Notes: single substitutions, most at no-binding floor
Relative to: wild-type JUN-FOS pair
Direction: higher = stronger binding
Starting sequence: JUN, bZIP domain (human); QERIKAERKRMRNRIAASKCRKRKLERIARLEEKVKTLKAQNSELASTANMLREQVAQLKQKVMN; partner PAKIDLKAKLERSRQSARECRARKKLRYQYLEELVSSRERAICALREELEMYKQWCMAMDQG
The binding fitness of `T37A` is reported as -1.34 natural log.
`S43F` gave a binding fitness of -1.5 natural log.
`E33R` has a binding fitness of -1.54 natural log.
The binding fitness of `T37W` is reported as -1.59 natural log.
With `Q55W` the binding fitness was -1.59 natural log.
`L59P` has a binding fitness of -1.5 natural log.
For `S43G`, the binding fitness was -1.4 natural log.
The binding fitness of `N42A` is reported as -1.38 natural log.
`E44L` gave a binding fitness of -1.53 natural log.
For `R53V`, the binding fitness was -1.51 natural log.
For `L59W`, the binding fitness was -1.61 natural log.
`V35W` gave a binding fitness of -1.38 natural log.
The binding fitness of `E54N` is reported as -1.51 natural log.
`K36H` gave a binding fitness of -1.44 natural log.
`Q55R` gave a binding fitness of -1.52 natural log.
`A46F` has a binding fitness of -1.54 natural log.
`L31W` has a binding fitness of -1.64 natural log.
`E54P` has a binding fitness of -1.54 natural log.
The binding fitness of `S47M` is reported as -1.22 natural log.
`L31R` has a binding fitness of -1.53 natural log.
`A57C` gave a binding fitness of -1.63 natural log.
For `E54A`, the binding fitness was -1.56 natural log.
With `I28L` the binding fitness was -1.55 natural log.
For `A29Y`, the binding fitness was -1.47 natural log.

For quick reference, copied from above (set 3):
`2'F-ANA at 3 4 9 13 15`: “mean fluorescence intensity” 476 a.u.
Under “mean fluorescence intensity”, `2'F-ANA at 1 4 9 11 13 15` is recorded as 74.3 a.u.
Under “mean fluorescence intensity”, `2'F-ANA at 1 3 5 6 7 8 10 11 12 14` is recorded as 56.4 a.u.
For `2'F-ANA at 1 2 4 7 11 12 14 15`, “mean fluorescence intensity” read 58.5 a.u.
For `2'F-ANA at 2 4 8 13 14`, “mean fluorescence intensity” read 104 a.u.
`2'F-ANA at 1 3 5 6 7 8 14` — result for “mean fluorescence intensity”: 57.1 a.u.
Under “mean fluorescence intensity”, `2'F-ANA at 2 3 4 7 8 9 10 11` is recorded as 295 a.u.
`2'F-ANA at 3 5 7 8 9 12 13 14 15`: “mean fluorescence intensity” 65 a.u.
`2'F-ANA at 1 2 6 7 9 11 15` — result for “mean fluorescence intensity”: 98.4 a.u.
`2'F-ANA at 2 3 4 6 8 9 11 13 15`: “mean fluorescence intensity” 314 a.u.
`2'F-ANA at 1 2 3 5 6 7 12 13 14 15`: “mean fluorescence intensity” 320 a.u.
`2'F-ANA at 3 4 6 8 11 12 13` — result for “mean fluorescence intensity”: 607 a.u.
For `2'F-ANA at 2 5 7 8 9 10 11 13 14`, “mean fluorescence intensity” read 51.9 a.u.
